Measured values collected from several papers.
A part holds a random share of what one study measured. Several values in a cell are separate wells, animals, samples, runs or records.
Chain of UniProt P22607 (whole entry, looked up): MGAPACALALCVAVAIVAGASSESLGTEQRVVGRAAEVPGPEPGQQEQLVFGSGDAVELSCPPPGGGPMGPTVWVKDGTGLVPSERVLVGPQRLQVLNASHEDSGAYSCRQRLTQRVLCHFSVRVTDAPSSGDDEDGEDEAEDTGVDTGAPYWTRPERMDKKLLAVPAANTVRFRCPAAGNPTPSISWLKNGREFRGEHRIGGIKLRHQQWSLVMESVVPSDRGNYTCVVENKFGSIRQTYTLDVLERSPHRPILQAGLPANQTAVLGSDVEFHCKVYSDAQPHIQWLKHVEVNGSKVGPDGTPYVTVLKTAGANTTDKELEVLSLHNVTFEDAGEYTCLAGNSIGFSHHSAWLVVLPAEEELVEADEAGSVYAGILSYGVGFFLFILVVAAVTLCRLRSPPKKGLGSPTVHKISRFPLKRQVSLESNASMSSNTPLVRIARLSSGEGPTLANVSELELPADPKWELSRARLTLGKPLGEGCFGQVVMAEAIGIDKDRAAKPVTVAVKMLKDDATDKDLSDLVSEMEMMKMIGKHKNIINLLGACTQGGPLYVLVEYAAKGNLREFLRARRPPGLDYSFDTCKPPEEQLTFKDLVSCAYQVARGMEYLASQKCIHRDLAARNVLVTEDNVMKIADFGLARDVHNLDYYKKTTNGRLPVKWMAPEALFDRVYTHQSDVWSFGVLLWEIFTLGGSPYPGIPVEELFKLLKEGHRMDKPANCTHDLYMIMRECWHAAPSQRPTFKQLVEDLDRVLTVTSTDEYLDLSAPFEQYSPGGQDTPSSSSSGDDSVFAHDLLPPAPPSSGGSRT

Study 1
Target: Eukaryotic initiation factor 4A-III (Homo sapiens, UniProt P38919)
Chain of UniProt P38919 (whole entry, looked up): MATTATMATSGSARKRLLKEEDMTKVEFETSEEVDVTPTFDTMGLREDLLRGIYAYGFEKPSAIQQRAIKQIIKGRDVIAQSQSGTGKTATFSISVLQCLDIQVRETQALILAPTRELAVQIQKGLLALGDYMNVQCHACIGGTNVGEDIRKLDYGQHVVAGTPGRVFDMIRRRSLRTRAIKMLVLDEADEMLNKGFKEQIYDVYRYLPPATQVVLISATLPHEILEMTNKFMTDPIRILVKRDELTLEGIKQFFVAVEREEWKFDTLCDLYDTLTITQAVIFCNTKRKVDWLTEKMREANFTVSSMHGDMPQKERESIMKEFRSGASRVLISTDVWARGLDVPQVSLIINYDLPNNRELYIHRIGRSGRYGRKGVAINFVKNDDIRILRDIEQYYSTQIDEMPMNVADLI
Observed: RNA clamping
Technique: fluorescence polarization
Tested at: concentration not given
Notes: mean of two replicates
Together with: FAM-labelled poly r(AG)8 RNA
| Structure (SMILES) | fluorescence polarization change |
| --- | --- |
| COc1ccc([C@@]23Oc4cc(O)cc(OC)c4[C@]2(O)c2nc4n(c(=O)c2[C@H]3c2ccccc2)CCC4)cc1 | 29.8 mP |
| COc1ccc([C@@]23Oc4cc(OC)cc(OC)c4[C@]2(O)c2nc(C)[nH]c(=O)c2[C@H]3c2ccccc2)cc1 | 45.1 mP |
| COc1ccc([C@@]23Oc4cc(OC)cc(OC)c4[C@@](O)(C2=O)[C@H](C(=O)N(C)OC)[C@H]3c2ccccc2)cc1 | 4.3 mP |
| CONC(=O)[C@H]1[C@@H](O)[C@@]2(O)c3c(OC)cc(F)cc3O[C@@]2(c2ccc(Br)cc2)[C@@H]1c1ccccc1 | 62.5 mP |
| C#CCCC1(CCOc2ccc([C@@H]3[C@@H](C(=O)N(C)OC)[C@@H](O)[C@@]4(O)c5c(OC)cc(OC)cc5O[C@@]34c3ccc(OC)cc3)cc2)N=N1 | -2.7 mP |
| C#CCNC(=O)COc1cc(OC)c2c(c1)O[C@@]1(c3ccc(OC)cc3)[C@H](c3ccccc3)c3c(nc(-c4ccccc4)[nH]c3=O)[C@@]21O | 9.1 mP |
| COc1ccc([C@@]23Oc4cc(OC)cc(OC)c4[C@]2(O)c2nc(N4CCOCC4)[nH]c(=O)c2[C@H]3c2ccccc2)cc1 | 39 mP and 32.1 mP |
| COc1ccc([C@@]23Oc4cc(OC)cc(OC)c4[C@]2(O)[C@H](O)[C@H](C(=O)N(C)C)[C@H]3c2ccccc2)cc1 | 38 mP |

Study 2
Organism: Plasmodium berghei
Action: inhibitor
Cells: Huh-7
Strain: liver stage
Tested at: 10 µM
Time: 24 h
Reference: untreated control
| SMILES | infection rate [%] |
| --- | --- |
| N[C@@H](Cc1cc(I)c(Oc2ccc(O)c(I)c2)c(I)c1)C(=O)O | 88.5 |
| CCOC(=O)[C@@](C)(N)Cc1ccc(O)c(O)c1 | 65.3 |
| COc1c2occc2cc2ccc(=O)oc12 | 94 |
| CC12CC3CC(C)(C1)CC(N)(C3)C2 | 101 |
| Cc1cc(C)cc(OCC2CNC(=O)O2)c1 (stereo not drawn) | 61.2 |
| Cc1c(OCC(F)(F)F)ccnc1C[S+]([O-])c1nc2ccccc2[nH]1 (stereo not drawn) | 60.6 |
| COC(=O)Nc1nc2cc(Sc3ccccc3)ccc2[nH]1 | 98.3 |
| CCn1cc(C(=O)O)c(=O)c2ccc(C)nc21 | 90.1 |

Single results of other studies
| Substance | target or system | assay | system | conditions | how to read | measurement | value |
| --- | --- | --- | --- | --- | --- | --- | --- |
| ramoplanin | Staphylococcus aureus | – | hemB transposon mutant | – | reference: wild type | MIC | no effect |
| Cn1cncc1[C@](O)(COc1ccc(C#N)cc1-c1ccc(OC(F)(F)F)cc1)c1ccc(C#N)cc1 | FGFR3 (Homo sapiens, UniProt P22607) | cell-free assay, competition with immobilised ligand | – | 1 µM | – | remaining binding | 83% |

For quick reference, copied from above (study 1):
| Structure (SMILES) | fluorescence polarization change |
| --- | --- |
| COc1ccc([C@@]23Oc4cc(OC)cc(OC)c4[C@]2(O)c2nc(N4CCOCC4)[nH]c(=O)c2[C@H]3c2ccccc2)cc1 | 39 mP and 32.1 mP |
| COc1ccc([C@@]23Oc4cc(OC)cc(OC)c4[C@@](O)(C2=O)[C@H](C(=O)N(C)OC)[C@H]3c2ccccc2)cc1 | 4.3 mP |
